Published values from different studies.
Each numbered part is a random draw from the data of one study; scales do not carry over between parts. Changes are numbered by the printed parent chain.
Chain of UniProt P43250 (whole entry, looked up): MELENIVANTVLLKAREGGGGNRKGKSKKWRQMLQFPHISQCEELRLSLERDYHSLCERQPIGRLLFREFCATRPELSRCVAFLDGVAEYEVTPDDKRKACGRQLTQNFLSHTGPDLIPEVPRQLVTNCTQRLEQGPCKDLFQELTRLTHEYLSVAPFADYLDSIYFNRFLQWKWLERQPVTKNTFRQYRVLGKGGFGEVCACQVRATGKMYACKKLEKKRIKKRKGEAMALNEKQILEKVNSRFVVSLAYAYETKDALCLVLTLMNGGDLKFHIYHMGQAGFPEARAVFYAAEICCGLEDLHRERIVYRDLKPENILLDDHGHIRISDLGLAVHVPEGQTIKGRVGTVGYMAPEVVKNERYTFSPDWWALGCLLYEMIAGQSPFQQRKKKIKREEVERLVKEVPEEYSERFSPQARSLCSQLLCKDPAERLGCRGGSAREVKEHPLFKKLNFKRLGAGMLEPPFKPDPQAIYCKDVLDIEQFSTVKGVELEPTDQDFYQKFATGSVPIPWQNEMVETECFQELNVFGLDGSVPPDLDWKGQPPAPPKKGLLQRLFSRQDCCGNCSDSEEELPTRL

Block 1 — technique: protein-binding microarray; molecule type: double-stranded DNA, one strand shown; medium: in vitro; tested at: 940 nM top; setting: 60-bp whole probe; added: salmon DNA 0.4 mg/ml; reference: random background probes; direction: higher = stronger binding; quantity: fitted relative affinity; constant ends, left off below: GCCTAGCAC … GTCTTGATTCGCTTGACGCTGCTG
Target: Interferon regulatory factor 5, full length, phosphomimetic (IRF5, Homo sapiens, UniProt Q13568-2, residues 1-514, S451D/S453D/S456D/S462D)
Sequence = TCACTTCTGTTTTTGCTACTGTGCTAG; value = 1.04 z-score
Sequence = TCATTTCTCTTATTCTAACTGTGCTAG; value = 1.98 z-score
Sequence = GACGGTATCGGACTCGGGACGTGCTAG; value = 1.98 z-score
Sequence = GACGGTCTCATTTTCCTGACGTGCTAG; value = 1.53 z-score
Sequence = GACGGTTCCGGGTATCGGGACGTGCTA; value = 1.45 z-score
Sequence = TTAGGACAGGACTTTCGGTTAGTGCTA; value = 2.71 z-score
Sequence = CACCGTCTTATTAAAAAACAGTGCTAG; value = 0.251 z-score
Sequence = TCATCTCCCATTATATTACTGTGCTAG; value = 1.42 z-score

Block 2 — technique: RNAcompete; molecule type: RNA; medium: in vitro; tested at: 20 nM; setting: 7-mer, probes averaged, single round; reference: mean of 7-mers; direction: higher = stronger binding; quantity: 7-mer Z-score
Target: PABPC1L2, full length, GST fusion (mouse, UniProt A0ABA7IW68)
Construct (chain): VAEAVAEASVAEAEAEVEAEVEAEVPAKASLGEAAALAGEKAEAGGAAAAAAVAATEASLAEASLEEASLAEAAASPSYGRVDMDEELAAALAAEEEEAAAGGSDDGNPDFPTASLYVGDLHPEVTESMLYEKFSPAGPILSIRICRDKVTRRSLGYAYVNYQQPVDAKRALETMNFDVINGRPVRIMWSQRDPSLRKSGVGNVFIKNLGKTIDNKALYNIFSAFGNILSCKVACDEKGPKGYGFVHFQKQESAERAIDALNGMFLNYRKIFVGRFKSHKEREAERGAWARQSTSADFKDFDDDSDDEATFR
Sequence = GACCCCU; value = -0.385
Sequence = AGCUCAG; value = -0.222
Sequence = UUUUAUA; value = 0.037
Sequence = GGAGUGG; value = 0.202
Sequence = GGGCAGA; value = 0.715
Sequence = CACUAGA; value = -0.0663
Sequence = UGGUCUC; value = -0.338
Sequence = UGGCGUC; value = -0.142

Block 3 — target: JUN, bZIP domain (human); technique: DHFR protein complementation; medium: yeast; reference: wild-type JUN-FOS pair; direction: higher = stronger binding; quantity: binding fitness
Setting: single substitutions, most at no-binding floor
Starting sequence: JUN, bZIP domain (human); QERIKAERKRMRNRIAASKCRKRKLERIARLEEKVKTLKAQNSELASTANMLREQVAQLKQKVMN; partner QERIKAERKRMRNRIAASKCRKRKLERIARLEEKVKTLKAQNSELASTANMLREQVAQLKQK
Substitution = R53H; value = -0.715 natural log
Substitution = Q58A; value = -0.175 natural log
Substitution = L38C; value = -1.04 natural log
Substitution = E54S; value = -0.527 natural log
Substitution = L45I; value = -0.798 natural log
Substitution = A29V; value = -0.604 natural log
Substitution = Q55D; value = -0.95 natural log
Substitution = E33W; value = -0.523 natural log

Mixed results
SMILES = COc1cc2c(N3CCN(C(=O)Nc4ccc(OC(C)C)cc4)CC3)ncnc2cc1OCCCN1CCCCC1; target = G protein-coupled receptor kinase 6 (GRK6, Homo sapiens, UniProt P43250); effect on = enzyme activity; mode = inhibitor; tested at = 0.5 µM; reference = control; quantity = remaining activity; value = 105%
